# Measured values pooled from the literature.
# Each numbered part is a random draw from the data of one study; scales do not carry over between parts.
# UniProt Q12866, sequence (whole entry, looked up): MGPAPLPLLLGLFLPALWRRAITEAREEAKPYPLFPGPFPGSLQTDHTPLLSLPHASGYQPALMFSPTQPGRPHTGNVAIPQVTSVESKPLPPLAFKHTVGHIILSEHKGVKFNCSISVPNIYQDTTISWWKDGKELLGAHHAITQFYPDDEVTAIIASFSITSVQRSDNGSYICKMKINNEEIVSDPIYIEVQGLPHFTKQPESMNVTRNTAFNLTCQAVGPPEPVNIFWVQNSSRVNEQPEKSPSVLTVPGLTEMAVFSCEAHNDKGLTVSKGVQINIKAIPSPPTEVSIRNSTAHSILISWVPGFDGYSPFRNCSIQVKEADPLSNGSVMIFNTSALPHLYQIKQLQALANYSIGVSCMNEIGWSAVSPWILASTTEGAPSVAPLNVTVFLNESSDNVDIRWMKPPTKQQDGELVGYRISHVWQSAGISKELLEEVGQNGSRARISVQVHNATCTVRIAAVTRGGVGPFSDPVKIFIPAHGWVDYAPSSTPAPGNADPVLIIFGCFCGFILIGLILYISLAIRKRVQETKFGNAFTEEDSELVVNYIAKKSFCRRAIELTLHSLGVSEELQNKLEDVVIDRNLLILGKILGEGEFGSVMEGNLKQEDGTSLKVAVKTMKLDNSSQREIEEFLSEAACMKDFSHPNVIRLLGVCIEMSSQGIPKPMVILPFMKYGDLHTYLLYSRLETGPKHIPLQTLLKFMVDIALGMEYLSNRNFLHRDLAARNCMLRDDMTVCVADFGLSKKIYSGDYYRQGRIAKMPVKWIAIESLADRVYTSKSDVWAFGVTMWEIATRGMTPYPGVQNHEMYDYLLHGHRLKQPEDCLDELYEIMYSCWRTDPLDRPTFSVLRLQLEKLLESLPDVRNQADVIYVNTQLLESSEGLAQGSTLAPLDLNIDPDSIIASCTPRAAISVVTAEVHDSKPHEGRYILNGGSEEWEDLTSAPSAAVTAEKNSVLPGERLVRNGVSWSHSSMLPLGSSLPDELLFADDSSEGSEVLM
# UniProt P11362, sequence (whole entry, looked up): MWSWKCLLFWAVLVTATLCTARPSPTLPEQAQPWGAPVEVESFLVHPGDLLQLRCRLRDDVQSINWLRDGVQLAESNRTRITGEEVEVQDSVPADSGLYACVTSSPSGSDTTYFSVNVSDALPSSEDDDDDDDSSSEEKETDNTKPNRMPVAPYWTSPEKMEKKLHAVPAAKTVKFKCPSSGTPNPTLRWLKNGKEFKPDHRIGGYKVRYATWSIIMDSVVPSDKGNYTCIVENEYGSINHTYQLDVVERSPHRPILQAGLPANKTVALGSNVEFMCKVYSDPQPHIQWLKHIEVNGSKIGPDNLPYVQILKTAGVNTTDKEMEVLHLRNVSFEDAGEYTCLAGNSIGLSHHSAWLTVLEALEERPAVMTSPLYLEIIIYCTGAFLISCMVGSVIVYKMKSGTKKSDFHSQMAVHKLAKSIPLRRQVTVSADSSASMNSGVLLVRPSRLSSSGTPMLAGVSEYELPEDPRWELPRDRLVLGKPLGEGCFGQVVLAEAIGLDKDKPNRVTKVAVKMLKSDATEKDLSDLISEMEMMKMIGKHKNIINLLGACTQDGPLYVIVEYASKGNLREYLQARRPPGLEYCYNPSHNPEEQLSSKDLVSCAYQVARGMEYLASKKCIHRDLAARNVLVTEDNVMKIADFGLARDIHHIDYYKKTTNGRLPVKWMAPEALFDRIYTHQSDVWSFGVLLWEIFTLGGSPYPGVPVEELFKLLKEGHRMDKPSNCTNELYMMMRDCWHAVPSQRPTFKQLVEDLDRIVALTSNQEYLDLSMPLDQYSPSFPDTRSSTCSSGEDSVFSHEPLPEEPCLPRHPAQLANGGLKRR
# UniProt Q99558, sequence (whole entry, looked up): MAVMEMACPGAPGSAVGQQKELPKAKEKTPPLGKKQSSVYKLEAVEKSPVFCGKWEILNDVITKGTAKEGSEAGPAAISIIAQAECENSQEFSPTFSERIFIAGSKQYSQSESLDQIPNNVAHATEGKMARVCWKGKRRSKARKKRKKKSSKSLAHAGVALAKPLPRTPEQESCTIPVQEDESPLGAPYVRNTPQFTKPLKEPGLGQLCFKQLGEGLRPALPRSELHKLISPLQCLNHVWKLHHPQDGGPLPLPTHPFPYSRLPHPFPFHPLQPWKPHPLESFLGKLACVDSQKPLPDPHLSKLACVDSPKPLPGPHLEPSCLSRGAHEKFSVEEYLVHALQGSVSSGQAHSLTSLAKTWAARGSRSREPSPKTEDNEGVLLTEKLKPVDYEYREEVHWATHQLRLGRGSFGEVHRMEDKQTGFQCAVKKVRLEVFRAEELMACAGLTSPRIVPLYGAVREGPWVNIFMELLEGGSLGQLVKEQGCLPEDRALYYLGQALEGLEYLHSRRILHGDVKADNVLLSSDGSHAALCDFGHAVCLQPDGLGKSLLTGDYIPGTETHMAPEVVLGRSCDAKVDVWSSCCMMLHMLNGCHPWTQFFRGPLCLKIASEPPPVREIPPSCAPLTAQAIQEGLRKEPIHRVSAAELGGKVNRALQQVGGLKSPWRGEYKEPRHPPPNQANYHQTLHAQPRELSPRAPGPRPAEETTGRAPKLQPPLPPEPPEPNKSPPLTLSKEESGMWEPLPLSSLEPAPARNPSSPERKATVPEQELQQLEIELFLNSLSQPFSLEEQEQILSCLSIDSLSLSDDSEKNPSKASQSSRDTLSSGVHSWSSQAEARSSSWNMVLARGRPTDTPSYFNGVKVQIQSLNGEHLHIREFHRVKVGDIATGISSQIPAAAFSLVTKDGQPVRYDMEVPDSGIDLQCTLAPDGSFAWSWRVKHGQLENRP
# UniProt P27361, sequence (whole entry, looked up): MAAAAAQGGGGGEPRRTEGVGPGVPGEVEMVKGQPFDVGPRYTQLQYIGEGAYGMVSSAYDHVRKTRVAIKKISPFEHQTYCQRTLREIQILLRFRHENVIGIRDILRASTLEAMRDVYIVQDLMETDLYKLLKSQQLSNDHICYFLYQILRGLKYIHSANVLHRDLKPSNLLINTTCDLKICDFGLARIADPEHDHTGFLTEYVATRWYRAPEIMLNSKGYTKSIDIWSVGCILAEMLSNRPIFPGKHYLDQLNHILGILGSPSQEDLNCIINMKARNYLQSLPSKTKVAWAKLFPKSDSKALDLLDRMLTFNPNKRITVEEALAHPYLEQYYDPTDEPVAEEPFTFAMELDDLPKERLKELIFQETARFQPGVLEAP
# UniProt Q15349, sequence (whole entry, looked up): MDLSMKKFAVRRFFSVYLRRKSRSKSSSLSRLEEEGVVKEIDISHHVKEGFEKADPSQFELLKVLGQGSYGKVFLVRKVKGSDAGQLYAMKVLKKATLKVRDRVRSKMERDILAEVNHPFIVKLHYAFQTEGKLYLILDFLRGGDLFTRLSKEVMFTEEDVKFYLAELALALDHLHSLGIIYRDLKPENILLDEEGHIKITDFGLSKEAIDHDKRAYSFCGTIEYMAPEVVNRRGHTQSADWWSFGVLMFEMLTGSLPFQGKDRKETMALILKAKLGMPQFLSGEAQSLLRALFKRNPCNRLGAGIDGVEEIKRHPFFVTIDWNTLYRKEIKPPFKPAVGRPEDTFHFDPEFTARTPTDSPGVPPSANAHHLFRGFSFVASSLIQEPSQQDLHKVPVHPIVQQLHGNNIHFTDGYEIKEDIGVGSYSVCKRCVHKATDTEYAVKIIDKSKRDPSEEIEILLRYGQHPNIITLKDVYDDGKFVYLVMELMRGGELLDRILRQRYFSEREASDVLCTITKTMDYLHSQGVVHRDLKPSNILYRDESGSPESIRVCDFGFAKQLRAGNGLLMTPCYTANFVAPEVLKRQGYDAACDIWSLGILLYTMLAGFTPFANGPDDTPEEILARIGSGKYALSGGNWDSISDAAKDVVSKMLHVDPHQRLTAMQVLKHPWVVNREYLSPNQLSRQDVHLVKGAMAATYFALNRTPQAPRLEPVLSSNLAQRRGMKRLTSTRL
# UniProt Q9UHD2, sequence (whole entry, looked up): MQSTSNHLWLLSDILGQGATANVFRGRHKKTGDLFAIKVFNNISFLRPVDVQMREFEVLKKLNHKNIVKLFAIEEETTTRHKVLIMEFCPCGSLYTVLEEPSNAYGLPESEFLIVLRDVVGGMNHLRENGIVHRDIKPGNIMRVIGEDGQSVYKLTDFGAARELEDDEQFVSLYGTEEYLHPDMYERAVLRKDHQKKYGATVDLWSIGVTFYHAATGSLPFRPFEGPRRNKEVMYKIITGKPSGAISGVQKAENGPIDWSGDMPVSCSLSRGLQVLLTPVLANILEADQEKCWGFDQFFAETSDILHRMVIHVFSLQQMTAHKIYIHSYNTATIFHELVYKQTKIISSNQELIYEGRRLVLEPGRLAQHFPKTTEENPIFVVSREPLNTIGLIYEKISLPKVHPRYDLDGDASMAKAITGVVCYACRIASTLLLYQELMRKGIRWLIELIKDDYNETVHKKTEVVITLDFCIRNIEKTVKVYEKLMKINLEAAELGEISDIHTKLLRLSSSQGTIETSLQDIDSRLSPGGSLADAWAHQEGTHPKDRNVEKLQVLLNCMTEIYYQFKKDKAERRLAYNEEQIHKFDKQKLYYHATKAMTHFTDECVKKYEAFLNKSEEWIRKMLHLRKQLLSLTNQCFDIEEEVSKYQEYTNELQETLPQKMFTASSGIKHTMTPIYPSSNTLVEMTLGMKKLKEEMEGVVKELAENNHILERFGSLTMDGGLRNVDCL

# Study 1
# Target: Eukaryotic initiation factor 4A-I (EIF4A1, Homo sapiens, UniProt P60842, residues 1-406, full length assumed)
# UniProt P60842, sequence (whole entry, looked up): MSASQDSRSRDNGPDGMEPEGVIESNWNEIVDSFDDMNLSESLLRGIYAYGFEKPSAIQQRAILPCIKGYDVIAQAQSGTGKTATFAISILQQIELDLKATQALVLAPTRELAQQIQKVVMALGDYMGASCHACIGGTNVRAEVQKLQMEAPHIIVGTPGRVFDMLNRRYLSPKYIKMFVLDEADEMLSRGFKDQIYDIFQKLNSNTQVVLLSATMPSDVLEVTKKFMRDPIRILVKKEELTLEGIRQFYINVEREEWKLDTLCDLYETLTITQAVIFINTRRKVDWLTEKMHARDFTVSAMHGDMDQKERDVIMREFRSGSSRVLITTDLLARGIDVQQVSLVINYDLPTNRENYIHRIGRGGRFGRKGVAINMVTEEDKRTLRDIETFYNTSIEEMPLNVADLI
# Technique: RNA Bind-n-Seq
# Molecule type: RNA
# Sample: in vitro
# Tested at: 15 pmol
# Notes: 4-mer, random 30-nt RNA, single round
# Together with: 3 µM RocA, 2 mM AMP-PNP
# Reference: mean of 4-mers
# Direction: higher = stronger binding
Sequence,4-mer enrichment Z-score
AGGG,1.64
UGCU,-0.347
ACGA,0.164
UUAG,0.327
UAGU,0.381
UGGG,1.86
GCAG,-0.0124
CGAG,0.982

# Study 2
# Compound: O=C(N[C@H]1CCCCC/C=C\C2C[C@@]2(C(=O)O)NC(=O)[C@@H]2C[C@@H](Oc3ccncc3)CN2C1=O)OC1CCCC1 (stereo partly shown)
# Effect on: binding
# Technique: competition with immobilised ligand
# Tested at: 1 µM
target,remaining binding [%]
"Casein kinase I isoform alpha-like (CSNK1A1L, Homo sapiens, UniProt Q8N752)",100
"Microtubule-associated serine/threonine-protein kinase 1 (MAST1, Homo sapiens, UniProt Q9Y2H9)",82
"Dual specificity protein kinase CLK1 (CLK1, Homo sapiens, UniProt P49759)",100
"Mitogen-activated protein kinase 7 (MAPK7, Homo sapiens, UniProt Q13164)",90

# Study 3
# SMILES: Cc1cc2ncc(-c3ccccc3)nc2cc1C
# Effect on: enzyme activity
# Action: inhibitor
# Tested at: 0.5 µM
# Reference: control
target,remaining activity [%]
"Casein kinase I isoform gamma-2 (CSNK1G2, Homo sapiens, UniProt P78368)",86.5
"Tyrosine-protein kinase Mer (MERTK, Homo sapiens, UniProt Q12866)",81.4
"Mitogen-activated protein kinase kinase kinase 14 (MAP3K14, Homo sapiens, UniProt Q99558)",112
"Fibroblast growth factor receptor 1 (FGFR1, Homo sapiens, UniProt P11362)",91.9
"Ribosomal protein S6 kinase alpha-2 (RPS6KA2, Homo sapiens, UniProt Q15349)",92.5
"Serine/threonine-protein kinase Nek1 (NEK1, Homo sapiens, UniProt Q96PY6)",96.1
"Casein kinase I isoform gamma-3 (CSNK1G3, Homo sapiens, UniProt Q9Y6M4)",99
"Rhodopsin kinase GRK7 (GRK7, Homo sapiens, UniProt Q8WTQ7)",102
"Serine/threonine-protein kinase ULK2 (ULK2, Homo sapiens, UniProt Q8IYT8)",108
"Tyrosine-protein kinase Lck (LCK, Homo sapiens, UniProt P06239)",99.5
"Serine/threonine-protein kinase TBK1 (TBK1, Homo sapiens, UniProt Q9UHD2)",93.8
"Mitogen-activated protein kinase 3 (MAPK3, Homo sapiens, UniProt P27361)",106

# Further values, each from its own experiment
# Technique: two-hybrid
# Reference: out of 4 tests
# Direction: higher = firmer interaction
# T1: itself; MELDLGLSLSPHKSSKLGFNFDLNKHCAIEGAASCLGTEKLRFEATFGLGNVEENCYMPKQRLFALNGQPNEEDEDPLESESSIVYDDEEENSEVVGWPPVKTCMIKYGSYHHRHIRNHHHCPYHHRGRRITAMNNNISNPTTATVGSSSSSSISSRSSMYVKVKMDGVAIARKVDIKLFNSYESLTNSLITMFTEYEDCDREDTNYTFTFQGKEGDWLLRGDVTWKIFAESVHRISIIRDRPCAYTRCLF
# T2: itself; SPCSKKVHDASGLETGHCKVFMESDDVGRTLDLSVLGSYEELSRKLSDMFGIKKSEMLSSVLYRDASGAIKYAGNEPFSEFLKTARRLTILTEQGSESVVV
# T3: itself; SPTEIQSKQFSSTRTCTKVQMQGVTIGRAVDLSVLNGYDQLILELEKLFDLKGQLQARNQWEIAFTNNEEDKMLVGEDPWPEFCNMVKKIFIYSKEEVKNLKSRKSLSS
# T4: itself; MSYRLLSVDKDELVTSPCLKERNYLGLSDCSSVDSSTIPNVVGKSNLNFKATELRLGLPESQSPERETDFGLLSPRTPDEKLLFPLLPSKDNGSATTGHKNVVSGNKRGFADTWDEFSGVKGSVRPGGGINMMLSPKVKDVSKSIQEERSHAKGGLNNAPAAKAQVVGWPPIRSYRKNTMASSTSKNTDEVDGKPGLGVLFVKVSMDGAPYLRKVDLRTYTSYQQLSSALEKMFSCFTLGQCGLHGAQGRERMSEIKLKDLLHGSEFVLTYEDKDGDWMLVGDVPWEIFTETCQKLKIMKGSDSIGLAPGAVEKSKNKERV
# B1: ARF16 570-670 (Arabidopsis thaliana, UniProt Q93YR9); chain SPCSKKVHDASGLETGHCKVFMESDDVGRTLDLSVLGSYEELSRKLSDMFGIKKSEMLSSVLYRDASGAIKYAGNEPFSEFLKTARRLTILTEQGSESVVV
# B2: ARF14 497-605 (Arabidopsis thaliana, UniProt Q9LQE8); chain SPTEIQSKQFSSTRTCTKVQMQGVTIGRAVDLSVLNGYDQLILELEKLFDLKGQLQARNQWEIAFTNNEEDKMLVGEDPWPEFCNMVKKIFIYSKEEVKNLKSRKSLSS
Molecule,partner,positive tests
"IAA29 (Arabidopsis thaliana, UniProt Q93WC4)","T1, itself",0
B1 (ARF16 570-670),"T2, itself",0
B2 (ARF14 497-605),"T3, itself",0
"IAA8 (Arabidopsis thaliana, UniProt Q38826)","T4, itself",2

# For quick reference, copied from above (study 1):
Sequence,4-mer enrichment Z-score
UAGU,0.381
UGGG,1.86
GCAG,-0.0124
CGAG,0.982
